Published values collected from several papers.
Protocols differ between the studies behind these lines.
Method: steady-state kinetics
B1: POLK W214Y/W392H (Homo sapiens, UniProt Q9UBT6); chain MGLNDNKAGMEGLDKEKINKIIMEATKGSRFYGNELKKEKQVNQRIENMMQQKAQITSQQLRKAQLQVDRFAMELEQSRNLSNTIVHIDMDAFYAAVEMRDNPELKDKPIAVGSMSMLSTSNYHARRFGVRAAMPGFIAKRLCPQLIIVPPNFDKYRAVSKEVKEILADYDPNFMAMSLDEAYLNITKHLEERQNYPEDKRRYFIKMGSSVENDNPGKEVNKLSEHERSISPLLFEESPSDVQPPGDPFQVNFEEQNNPQILQNSVVFGTSAQEVVKEIRFRIEQKTTLTASAGIAPNTMLAKVCSDKNKPNGQYQILPNRQAVMDFIKDLPIRKVSGIGKVTEKMLKALGIITCTELYQQRALLSLLFSETSHHYFLHISLGLGSTHLTRDGERKSMSVERTFSEINKAEEQYSLCQELCSELAQDLQKERLKGRTVTIKLKNVNFEVKTRASTVSSVVSTAEEIFAIAKELLKTEIDADFPHPLRLRLMGVRISSFPNEEDRKHQQ
B2: ybiA (Escherichia coli, UniProt P30176); chain MPVRAQRIQHVMQDTIINFYSTSDDYGDFSNFAAWPIKVDGKTWPTSEHYFQAQKFLDEKYREEIRRVSSPMVAARMGRDRSKPLRKNWESVKEQVMRKALRAKFEQHAELRALLLATAPAKLVEHTENDAYWGDGGHGKGKNRLGYLLMELREQLAIEK
B3: anthranilate synthase (Streptomyces venezuelae, UniProt O30589); chain MDLSRLLDPSCPPFALLRRRTPGRDHDTVEVLIGRVHEAERLAELPVGPLPALALVPFRQIRERGFDVRDDGTPLSVLVAEETHTLPLAEALDRLPAHDVTVEDGGFDVSDEEYAGIVRRVIDEEIGSGEGANFVIRRTYTGEIPGFGRADALALFRRLLAGERGAYWTFVVHTGDRTLVGASPEVHVRMSGGTVVMNPISGTYRYPAGAAPTAEGLLAFLADRKETEELSMVVDEELKMMCTVGDMGGVVIGPRLKEMAHLAHTEYELRGRSSLDVREVLRETMFAATVTGSPVQNACRVIERHEVGGRGYYAGALALLGTDENGAQSLDSPILIRTADIAADGHLRVPVGATLVRHSDPAGEVAETHAKAAGVLTALGVREGRPAGGPAPAPTALADDPRVRAALDARRADLAPFWLRMQVRSAELSGHALVIDAEDTFTAMLAHVLRSSGLDVSVLRYDEPGLRELALAHEGPVVLGPGPGNPSDAADPKMRFLRALTADLVRDHRHGLLGVCLGHELIAAELGLEIVRKRTPFQGAQMRIDLFGQERTVGFYNSFTARCDERTATELALHRIEVSRDAETGEVHALRGPGFAGVQFHPESVLTTDGAALTASLLAGVLV
B4: MMP2 (Homo sapiens, UniProt P08253); chain YNFFPRKPKWDKNQITYRIIGYTPDLDPETVDDAFARAFQVWSDVTPLRFSRIHDGEADIMINFGRWEHGDGYPFDGKDGLLAHAFAPGTGVGGDSHFDDDELWTLGEGQVVRVKYGNADGEYCKFPFLFNGKEYNSCTDTGRSDGFLWCSTTYNFEKDGKYGFCPHEALFTMGGNAEGQPCKFPFRFQGTSYDSCTTEGRTDGYRWCGTTEDYDRDKKYGFCPETAMSTVGGNSEGAPCVFPFTFLGNKYESCTSAGRSDGKMWCATTANYDDDRKWGFCPDQGYSLFLVAAHEFGHAMGLEHSQDPGALMAPIYTYTKNFRLSQDDIKGIQELYGASPDIDLGTGPTPTLGPVTPEICKQDIVFDGIAQIRGEIFFFKDRFIWRTVTPRDKPMGPLLVATFWPELPEKIDAVYEAPQEEKAVFFAGNEYWIYSASTLERGYPKPLTSLGLPPDVQRVDAAFNWSKNKKTYIFAGDKFWRYNEVKKKMDPGFPKLIADAWNAIPDNLDAVVDLQGGGHSYFFKGAYYLKLENQSLKSVKFGSIKSDWLGC
B5: hdhb (Clostridium sardiniense, UniProt G9FRD6); chain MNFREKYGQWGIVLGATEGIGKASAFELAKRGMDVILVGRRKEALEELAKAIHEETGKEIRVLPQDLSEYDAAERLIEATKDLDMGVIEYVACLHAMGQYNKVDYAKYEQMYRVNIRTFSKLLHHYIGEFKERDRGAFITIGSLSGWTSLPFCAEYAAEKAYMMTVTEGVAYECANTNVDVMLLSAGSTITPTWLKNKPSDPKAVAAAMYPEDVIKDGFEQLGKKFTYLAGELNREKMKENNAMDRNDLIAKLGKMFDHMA
Sequence of UniProt Q8QZR1 (whole entry, looked up): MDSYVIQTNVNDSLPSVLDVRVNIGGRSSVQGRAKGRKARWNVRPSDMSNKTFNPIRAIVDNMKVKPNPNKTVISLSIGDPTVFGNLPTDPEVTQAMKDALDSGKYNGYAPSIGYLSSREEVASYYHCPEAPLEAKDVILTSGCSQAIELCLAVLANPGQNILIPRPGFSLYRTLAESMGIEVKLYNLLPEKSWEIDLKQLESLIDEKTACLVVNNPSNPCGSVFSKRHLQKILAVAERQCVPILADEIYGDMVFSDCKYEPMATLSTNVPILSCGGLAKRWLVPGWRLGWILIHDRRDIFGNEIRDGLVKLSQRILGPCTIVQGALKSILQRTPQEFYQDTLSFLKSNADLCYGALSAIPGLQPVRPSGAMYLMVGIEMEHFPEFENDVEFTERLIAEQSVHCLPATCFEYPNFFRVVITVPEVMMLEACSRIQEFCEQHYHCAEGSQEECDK
Sequence of UniProt P09950 (whole entry, unmodified, looked up): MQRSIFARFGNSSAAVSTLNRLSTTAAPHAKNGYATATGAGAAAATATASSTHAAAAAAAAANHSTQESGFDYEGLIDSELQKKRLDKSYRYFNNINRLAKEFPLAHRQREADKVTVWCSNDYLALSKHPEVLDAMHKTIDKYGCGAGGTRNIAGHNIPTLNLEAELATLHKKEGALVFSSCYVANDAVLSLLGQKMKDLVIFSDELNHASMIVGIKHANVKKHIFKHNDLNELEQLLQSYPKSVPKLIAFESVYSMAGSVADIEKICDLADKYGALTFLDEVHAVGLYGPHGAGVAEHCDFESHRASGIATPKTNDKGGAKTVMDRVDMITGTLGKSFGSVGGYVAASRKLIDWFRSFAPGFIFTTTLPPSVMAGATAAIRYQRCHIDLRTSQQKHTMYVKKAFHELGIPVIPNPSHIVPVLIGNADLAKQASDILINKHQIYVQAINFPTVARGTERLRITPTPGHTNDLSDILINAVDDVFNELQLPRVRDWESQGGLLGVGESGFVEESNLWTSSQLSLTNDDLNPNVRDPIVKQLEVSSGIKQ
Sequence of UniProt Q7L266 (whole entry, looked up): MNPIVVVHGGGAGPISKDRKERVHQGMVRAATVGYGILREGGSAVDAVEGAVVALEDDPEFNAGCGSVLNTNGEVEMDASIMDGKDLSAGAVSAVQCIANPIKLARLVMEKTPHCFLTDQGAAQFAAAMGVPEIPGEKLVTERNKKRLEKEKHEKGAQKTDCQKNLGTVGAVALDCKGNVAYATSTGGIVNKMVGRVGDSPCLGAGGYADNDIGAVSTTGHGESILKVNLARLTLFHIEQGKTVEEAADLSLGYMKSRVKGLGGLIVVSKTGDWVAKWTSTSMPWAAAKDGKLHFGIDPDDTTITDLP
Sequence of UniProt O82390 (whole entry, looked up): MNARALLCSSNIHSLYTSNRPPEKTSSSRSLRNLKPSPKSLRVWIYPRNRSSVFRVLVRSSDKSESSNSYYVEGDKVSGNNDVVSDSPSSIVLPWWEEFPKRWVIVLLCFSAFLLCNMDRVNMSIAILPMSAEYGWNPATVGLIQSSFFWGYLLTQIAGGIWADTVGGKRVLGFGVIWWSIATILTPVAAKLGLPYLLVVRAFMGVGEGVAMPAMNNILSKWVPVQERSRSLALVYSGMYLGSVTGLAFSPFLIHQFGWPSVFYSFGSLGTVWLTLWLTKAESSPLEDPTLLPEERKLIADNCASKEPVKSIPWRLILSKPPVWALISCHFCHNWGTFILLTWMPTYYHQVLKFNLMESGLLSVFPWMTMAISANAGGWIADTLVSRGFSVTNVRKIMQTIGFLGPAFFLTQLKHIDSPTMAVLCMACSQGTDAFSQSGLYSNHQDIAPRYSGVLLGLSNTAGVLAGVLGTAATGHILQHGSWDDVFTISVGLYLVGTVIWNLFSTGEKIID
Sequence of UniProt P07914 (whole entry, looked up): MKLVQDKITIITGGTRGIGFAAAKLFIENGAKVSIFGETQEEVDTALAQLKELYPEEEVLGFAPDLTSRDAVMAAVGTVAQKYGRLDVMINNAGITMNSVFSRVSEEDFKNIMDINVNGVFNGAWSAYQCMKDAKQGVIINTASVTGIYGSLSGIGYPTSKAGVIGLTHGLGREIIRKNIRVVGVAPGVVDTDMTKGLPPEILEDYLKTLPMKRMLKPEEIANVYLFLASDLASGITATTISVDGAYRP

Substance | substrate | pH | temperature | setting | added | Km
enzyme (UniProt A0A7J5BGR1) | COc1cc(CN)ccc1O | pH 8 | 25 °C | – | – | 350 µM
HEM1 (Saccharomyces cerevisiae, UniProt P09950) | CC(C)(COP(=O)(O)OP(=O)(O)OC[C@H]1O[C@@H](n2cnc3c(N)ncnc32)[C@H](O)[C@@H]1OP(=O)(O)O)[C@@H](O)C(=O)NCCC(=O)NCCSC(=O)CCC(=O)O | pH 7.4 | 30 °C | – | – | 33 µM
ASRGL1 (Homo sapiens, UniProt Q7L266) | NC(=O)C[C@H](N)C(=O)O | pH 7.4 | 37 °C | NaCl 100 mM | – | 3400 µM
Tat (Mus musculus, UniProt Q8QZR1) | N[C@@H](Cc1ccccc1)C(=O)O | pH 7 | 38 °C | 100 mM phosphate | 10 mM KGA; PLP | 11400 µM
B1 (POLK W214Y/W392H) | Nc1ccn([C@H]2C[C@H](O)[C@@H](COP(=O)(O)OP(=O)(O)OP(=O)(O)O)O2)c(=O)n1 | pH 7.5 | 23 °C | MgCl2 5 mM | G template | 1.7 µM
pgmB (Lactococcus lactis, UniProt P71447) | O=P(O)(O)OC[C@H]1O[C@@H](OP(=O)(O)O)[C@H](O)[C@@H](O)[C@@H]1O | pH 7 | 25 °C | – | – | 0.63 µM
B2 (ybiA) | Nc1nc(N[C@@H]2O[C@H](COP(=O)(O)O)[C@@H](O)[C@H]2O)c(N)c(=O)[nH]1 | pH 8 | 22 °C | substrate not purified | – | 4040 µM
BaiA1 (Clostridium scindens, UniProt P07914) | C[C@H](CCC(=O)SCCNC(=O)CCNC(=O)[C@H](O)C(C)(C)COP(=O)(O)OP(=O)(O)OC[C@H]1O[C@@H](n2cnc3c(N)ncnc32)[C@H](O)[C@@H]1OP(=O)(O)O)[C@H]1CC[C@H]2[C@@H]3[C@H](O)C[C@@H]4CC(=O)CC[C@]4(C)[C@H]3CC[C@]12C | pH 8.7 | 37 °C | – | NADH | 3.3 µM
B3 (anthranilate synthase) | C=C(O[C@@H]1C=C(C(=O)O)C=C[C@H]1O)C(=O)O | pH 7.5 | 30 °C | – | glutamine saturating; MgCl2 12.5 mM | 8.2 µM
B4 (MMP2) | CC(=O)N[C@@H](CCC(N)=O)C(=O)N1CCC[C@H]1C(=O)N[C@@H](CCC(N)=O)C(=O)NCC(=O)N[C@@H](CC(C)C)C(=O)N[C@@H](C)C(=O)N[C@@H](CCCCN)C(N)=O | – | – | – | – | 2030 µM
enzyme (Arabidopsis thaliana, UniProt O82390) | O=P(O)(O)O | pH 6.5 | 25 °C | apparent, not purified | – | 77.1 µM
B5 (hdhb) | NC(=O)c1ccc[n+]([C@@H]2O[C@H](COP(=O)(O)OP(=O)(O)OC[C@H]3O[C@@H](n4cnc5c(N)ncnc54)[C@H](OP(=O)(O)O)[C@@H]3O)[C@@H](O)[C@H]2O)c1 | pH 8 | 25 °C | cofactor varied | – | 33 µM

Repeated from above:
Substance | substrate | pH | temperature | setting | added | Km
pgmB (Lactococcus lactis, UniProt P71447) | O=P(O)(O)OC[C@H]1O[C@@H](OP(=O)(O)O)[C@H](O)[C@@H](O)[C@@H]1O | pH 7 | 25 °C | – | – | 0.63 µM
